Experimental data collected from several papers.
Values joined by “and” are separate records of one study, mostly repeats; a detail may differ. ± marks the error that the study gave.
UCHL1: Ubiquitin carboxyl-terminal hydrolase isozyme L1 (UCHL1, Homo sapiens, UniProt P09936)
Sequence of UniProt P09936 (whole entry, looked up): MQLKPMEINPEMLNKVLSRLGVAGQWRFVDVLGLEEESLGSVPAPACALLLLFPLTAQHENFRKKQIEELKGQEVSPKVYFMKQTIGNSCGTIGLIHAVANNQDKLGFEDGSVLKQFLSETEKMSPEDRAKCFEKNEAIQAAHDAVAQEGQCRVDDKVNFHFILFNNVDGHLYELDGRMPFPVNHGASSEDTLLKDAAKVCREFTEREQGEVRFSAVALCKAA

Structure (SMILES)	tested on	test	system	conditions	how to read	endpoint	result
O=C(/C=C/C=C/C=C/C1CCCCC1)NC1=C[C@@](O)(/C=C/C=C/C=C/C(=O)NC2=C(O)CCC2=O)[C@@H]2O[C@@H]2C1=O	A101D	cell growth, CellTiter-Glo		78 h		GI50	10.6 µM
COc1ccc(NC(=S)N/N=C/c2cccc3cc4ccccc4nc23)cc1	HeLa	PI flow cytometry		IC50, 48 h		cells in S phase	39%
CCCNC(=O)[C@H]1O[C@@H]1C(=O)N[C@H](C(=O)N1CCC[C@H]1C(=O)OC)[C@@H](C)CC	MCF-10A	cell viability, MTT		4 h, dark		EC50	> 100 µM
FC(F)(F)COCC(F)(F)F	MCF-10A	CellTiter-Glo		concentration not given	baseline: normalised luminescence	viability	111%
CCc1cnc(N2CCC(c3nc(COc4ccc(-n5cnnn5)cc4)cs3)CC2)nc1	HEK-293T	RNA-seq GSEA, measured: HALLMARK_HEDGEHOG_SIGNALING		concentration not given	direction not given	normalized enrichment score	1.47
COc1ccc(OC)c(-c2nc3ccc(-c4nc5ccc(N6CCN(C)CC6)cc5[nH]4)cc3[nH]2)c1	Malme-3M	SRB		10 µM, 48 h		growth percent	109%
CN(C)C(=O)c1cc2cnc(Nc3ccc(N4CCNCC4)cn3)nc2n1C1CCCC1	human neutrophils	enzyme immunoassay		1 to 10 µM, added: fMLF		cAMP level	increased
Nc1cccc2c1C(=O)N(C1CCC(=O)NC1=O)C2=O (stereo not shown)	RPMI-8226	flow cytometry, measured: CD35		concentration not given	baseline: comparator compound alone	surface marker level	41.3%
COc1ccc(CCNCc2ccc(OCc3ccc(Cl)nc3)c(OC)c2)cc1OC	Trypanosoma cruzi	reporter translation, Renilla luciferase mRNA translation	cell-free extract	40 µM	baseline: DMSO	inhibition	-11.6%
Cc1nn(-c2nc3ccc(Cl)c(Cl)c3[nH]2)c(O)c1C1OC(=O)c2ccccc21 (stereo not shown)	RAW-ISG	IFN luciferase reporter		2.5 µM, added: HT-DNA		inhibition	53.6% and 56.7% and 54.6% and 55.6% and 55.2%
Cc1n[nH]c2nc(-c3ccc(Cl)cc3)c3c(NC(=O)c4ccccc4)nnc-3n12	MDA-MB-231/ATCC	NCI60 SRB		10 µM		growth percent	94.3%
O=S(=O)(O)O	human neutrophils	anion exchange, substrate, trans-stimulated sulfate efflux		85 mM K+, glucuronate medium, added: nigericin 2 µM		Km	15.5 mM
CN(C)C(CNC(=O)CCl)c1ccccc1.Cl (stereo not shown)	UCHL1	covalent, intact protein LC-MS		12.5 µM		labelling	10.7%
CC(=O)c1nn(-c2ccc(C)cc2)/c(=N/N=C(\C)c2ccc(NC(=O)c3ccccc3)cc2)s1	MCF7	MTT		2.5 µM		cytotoxicity	93.5%
COc1cnc2cccc(N3CCc4c(cc(Cn5ccnc5C)cc4-c4cn(C)nc4C(F)(F)F)C3=O)c2c1	FaDu	cell growth, inhibitor		120 h		EC50	> 30 µM
N#CC(=Cc1ccccc1OCc1ccccc1)C(=O)NC(N)=O	UCHL1	covalent, intact protein LC-MS		12.5 µM		labelling	25.3%
CSCC[C@H](NC(=O)[C@H](Cc1ccc(OS(=O)(=O)O)cc1)NC(=O)[C@@H](N)CC(=O)O)C(=O)NCC(=O)N[C@@H](Cc1c[nH]c2ccccc12)C(=O)N[C@@H](CCSC)C(=O)N[C@@H](CC(=O)O)C(=O)N[C@@H](Cc1ccccc1)C(N)=O	HEK293T control virus	agonist, GloSensor cAMP		0.64 nM, no receptor expressed	higher = more cAMP	cAMP accumulation	0.2 a.u.
N#Cc1ccc(C[C@H](NC(=O)c2cc3ccc(F)cc3[nH]2)C(=O)N2CCc3ccccc32)cc1	human neutrophils	calcium mobilization, agonist				EC50	> 50 µM
Cc1nc(NC(=O)N2CCC[C@H]2C(N)=O)sc1-c1ccnc(C(C)(C)C(F)(F)F)c1	MDA-MB-453	resazurin growth rate inhibition		72 h		GR50	101 nM
CC(C)(C)c1cc(O)ccc1O	HepG2	extracellular flux, measured: oxygen consumption rate		1 h, distribution mode 2		point of departure	16.2 µM
O=C(Nc1cc(-c2ccccn2)n[nH]1)N1CC[C@@H](Oc2ccc(F)cc2)C1	Trypanosoma cruzi	reporter translation, Renilla luciferase mRNA translation	cell-free extract	40 µM	baseline: DMSO	inhibition	-1.3%
Cc1cc(C)nc(SCC(=O)Nc2ncc(Cc3cccc(OCc4cn(Cc5ccc(OCCN6CCOCC6)cc5)nn4)c3)s2)n1	PC-3M-luc	colony formation, colony forming		10 µM		inhibition	8.7 ± 7.8%
Cn1cc(-c2ccc(-c3cncc(Cl)c3N3CCC4(CCNC4=O)CC3)cc2)cn1	COLO 205	gene expression, microarray, measured: ARHGDIG mRNA		concentration not given, 2 h	baseline: untreated cells	log2 fold change	3.4
S=C(S)N1CCCC1	Toxoplasma gondii	parasite growth	HFF, bradyzoite, glutamine-induced			EC50	33.9 µM
Cn1c(Nc2nc3ccc(C(F)(F)F)cc3s2)nc2cc(C(=O)NCCOCCO)ccc21	SH-SY5Y	RNA-seq, measured: TMC6 mRNA		5 µM, 5 h	baseline: untreated cells	fold change	1.74

Repeated from above:
Structure (SMILES)	tested on	test	system	conditions	how to read	endpoint	result
N#Cc1ccc(C[C@H](NC(=O)c2cc3ccc(F)cc3[nH]2)C(=O)N2CCc3ccccc32)cc1	human neutrophils	calcium mobilization, agonist				EC50	> 50 µM
Cc1nc(NC(=O)N2CCC[C@H]2C(N)=O)sc1-c1ccnc(C(C)(C)C(F)(F)F)c1	MDA-MB-453	resazurin growth rate inhibition		72 h		GR50	101 nM
